Measured values of several laboratories.
Compare with care: the assays were run in different laboratories. Numbers after ± are the reported error.

SMILES	target or system	test	test system	conditions	endpoint	value
O=C1C(O)=C(Nc2cccc(C(F)(F)F)c2)C(=O)c2ccccc21	HepG2	cell growth or viability, MTT	–	72 h	CC50	178 µM
O=C1C(O)=C(CN2CCNCC2)C(=O)c2ccccc21	HepG2	MTT	10% FCS	24 h	median lethal concentration	2500 ± 547 µM
c1ccc2ncc(Nc3c4c(nc5ccccc35)CCCC4)cc2c1	HepG2	MTT	–	50 µM, 24 h, 10% FBS	inhibition	16.7 ± 0.65%
CC[C@H](C)[C@H](NC(=O)[C@H](C)NC(=O)[C@@H](NC(=O)[C@H](CC(=O)O)NC(=O)[C@H](CCCCN)NC(=O)[C@H](CO)NC(=O)[C@@H](NC(=O)[C@H](CC(N)=O)NC(=O)[C@H](C)NC(=O)[C@@H](NC(=O)[C@H](CCC(=O)O)NC(=O)[C@H](CCCCN)NC(=O)[C@@H](NC(=O)[C@@H](NC(=O)[C@H](Cc1c[nH]cn1)NC(=O)[C@H](CCCCN)NC(=O)[C@@H](NC(=O)[C@H](CCCCN)NC(=O)[C@H](CCCCN)NC(=O)[C@@H](NC(=O)[C@H](CC(C)C)NC(=O)[C@H](CCCCN)NC(=O)[C@H](CC(N)=O)NC(=O)[C@H](Cc1ccccc1)NC(=O)[C@H](CCCNC(=N)N)NC(=O)[C@H](CCCCN)NC(=O)[C@H](CCCNC(=N)N)NC(=O)[C@H](Cc1ccccc1)NC(=O)CN)C(C)C)C(C)C)[C@@H](C)O)[C@@H](C)CC)[C@@H](C)O)C(C)C)C(C)C)C(=O)N[C@H](C(=O)N[C@@H](C)C(=O)NCC(=O)N[C@@H](CO)C(=O)NCC(=O)N[C@H](C(=O)N[C@@H](C)C(=O)N[C@H](C(=O)NCC(=O)N[C@@H](C)C(=O)N[C@@H](C)C(=O)N[C@@H](CCSC)C(N)=O)C(C)C)C(C)C)C(C)C	HepG2	cytotoxicity, item: intracellular ATP	–	–	no-observed-effect concentration	433 mg/L
NNCC1=C(O)C(=O)c2ccccc2C1=O	HepG2	MTT	10% FCS	24 h	median lethal concentration	331 ± 105 µM
N=C(N)NCCC[C@H](NC(=O)[C@@H]1CCCN1C(=O)[C@H](CC(N)=O)NC(=O)[C@H](Cc1ccccc1)NC(=O)[C@H](Cc1c[nH]cn1)NC(=O)[C@H](Cc1ccccc1)NC(=O)[C@H](Cc1ccccc1)NC(=O)Cc1ccc2ccccc2c1)C(=O)O	HepG2	–	cell lysate	200 µM, 1 h	remaining peptide	33%
CC(C)=CCNCCOC1C2CC3CC(C2)CC1C3 (stereo not drawn)	HepG2	cell growth or viability	–	–	CC50	4.8 µg/mL
O=C1C(O)=C(Nc2cccc(Cl)c2)C(=O)c2ccccc21	HepG2	cell growth or viability, MTT	–	72 h	CC50	17 µM
O=C(Cc1ccc2ccccc2c1)N[C@@H](Cc1c[nH]c2ccccc12)C(=O)N[C@@H](Cc1c[nH]c2ccccc12)C(=O)N[C@@H](Cc1ccc(OP(=O)(O)O)cc1)C(=O)O	HepG2	MTT	–	400 µM, 3 days	viability	~60%
COc1cc(C(=O)NCCOCCOCCOCCNC(=O)c2ccc([18F])nc2)ccc1NC(=O)C1NC(CC(C)(C)C)C(C#N)(c2ccc(Cl)cc2F)C1c1cccc(Cl)c1F (stereo not drawn)	HepG2 tumour model	–	host not given, tumour	30 min, tumour-bearing	tracer uptake	3.8 %ID/g
Cc1ccnc(Nc2c3c(nc4ccccc24)CCC(C)C3)c1 (stereo not drawn)	HepG2	MTT	–	50 µM, 24 h, 10% FBS	inhibition	4.88 ± 0.27%
CC[C@H](C)[C@H](NC(=O)[C@H](CCC(N)=O)NC(=O)[C@@H](NC(=O)[C@H](CO)NC(=O)CNC(=O)CNC(=O)CNC(=O)[C@@H]1CCCN1C(=O)[C@@H](NC(=O)[C@H](Cc1c[nH]cn1)NC(=O)[C@H](CCCCN)NC(=O)[C@H](CCCCN)NC(=O)CNC(=O)CNC(=O)CNC(=O)[C@@H](N)CSC1CC(=O)N(c2ccc3c(c2)C(=O)OC32c3ccc(N(C)C)cc3Oc3cc(N(C)C)ccc32)C1=O)C(C)C)C(C)C)C(=O)N[C@H](C(=O)N[C@@H](Cc1ccc(O)cc1)C(=O)N[C@@H](CCCCN)C(=O)N1CCC[C@H]1C(=O)N[C@H](C(=O)N[C@@H](CC(=O)O)C(=O)N[C@@H](CC(C)C)C(=O)O)C(C)C)C(C)C (stereo partly drawn)	HepG2	–	–	10 µM, 72 h	cytotoxicity	not toxic
Clc1ccc(Nc2c3c(nc4ccccc24)CCCC3)cc1	HepG2	MTT	–	50 µM, 24 h, 10% FBS	inhibition	18.7 ± 0.64%
Cc1cc(O)c2c(C(=O)[O-])[n+]3n(c2c1)CCCC3	HepG2	cell growth or viability, CCK-8	–	50 µM, 24 h	viability	68.4%
C=C1CCC2C(C)(CO)C(O)CCC2(C)C1CC(SC(=S)N1CCN(Cc2cc(F)c(F)cc2F)CC1)C1=CCOC1=O (stereo not drawn)	HepG2	MTT	–	24 h	CC50	42.3 ± 1.16 µM
Cc1ccnc(Nc2c3c(nc4ccccc24)CCCC3)c1	HepG2	MTT	–	50 µM, 24 h, 10% FBS	inhibition	10.4 ± 0.24%
O=C1C(O)=C(CN2CC3CCC2CC3)C(=O)c2ccccc21	HepG2	MTT	10% FCS	24 h	median lethal concentration	≥ 3360 µM
COc1ccc(Nc2c3c(nc4ccc(Cl)cc24)CCCC3)nc1	HepG2	MTT	–	50 µM, 24 h, 10% FBS	inhibition	-3.87 ± 0.18%
O=C1C(O)=C(CNC2CCCC2)C(=O)c2ccccc21	HepG2	MTT	10% FCS	24 h	median lethal concentration	≥ 3690 µM
O=C1C(O)=C(Nc2ccccc2Cl)C(=O)c2ccccc21	HepG2	cell growth or viability, MTT	–	72 h	CC50	180 µM
COc1ccc(Nc2c3c(nc4ccccc24)CCCC3)cc1	HepG2	MTT	–	50 µM, 24 h, 10% FBS	inhibition	-31.5 ± 0.45%
Cc1cccc2c1NC(=O)C2=Cc1ccc(-c2cccc(C(=O)N3CCCN(C)CC3)c2)o1 (mixture of isomers)	HepG2	cell viability, MTT	–	24 h	CC50	> 50 µM
COc1ccnc(Nc2c3c(nc4ccccc24)CCCC3)c1	HepG2	MTT	–	50 µM, 24 h, 10% FBS	inhibition	4.25 ± 0.26%
CC(=O)N[C@@H](CC(=O)O)C(=O)N[C@@H](CCC(=O)O)C(=O)N[C@@H](CC(=O)O)C(=O)N[C@H](C(=O)NCC(=O)NCC(=O)NCC(=O)NCCNC(=O)OCC1c2ccccc2-c2ccccc21)C(C)C	HepG2	–	–	200 µM, 2 h, 37 °C, 10% FBS	cellular uptake	0.27 fmol/cell
O=C1C(O)=C(Nc2ccc(F)cc2)C(=O)c2ccccc21	HepG2	cell growth or viability, MTT	–	72 h	CC50	140 µM
COc1ccnc(Nc2c3c(nc4ccc(Cl)cc24)CCCC3)c1	HepG2	MTT	–	50 µM, 24 h, 10% FBS	inhibition	-7.85 ± 0.36%
CC(=O)N[C@@H](CC(=O)O)C(=O)N[C@@H](CCC(=O)O)C(=O)N[C@H](C(=O)N[C@@H](CC(=O)O)C(=O)NCC(=O)NCC(=O)NCC(=O)NCCNC(=O)OCC1c2ccccc2-c2ccccc21)C(C)C	HepG2	–	–	200 µM, 2 h, 37 °C	unmetabolized fraction	51.3%

Repeated from above:
SMILES	target or system	test	test system	conditions	endpoint	value
O=C1C(O)=C(CN2CC3CCC2CC3)C(=O)c2ccccc21	HepG2	MTT	10% FCS	24 h	median lethal concentration	≥ 3360 µM
O=C1C(O)=C(CN2CCNCC2)C(=O)c2ccccc21	HepG2	MTT	10% FCS	24 h	median lethal concentration	2500 ± 547 µM
C=C1CCC2C(C)(CO)C(O)CCC2(C)C1CC(SC(=S)N1CCN(Cc2cc(F)c(F)cc2F)CC1)C1=CCOC1=O (stereo not drawn)	HepG2	MTT	–	24 h	CC50	42.3 ± 1.16 µM
COc1ccc(Nc2c3c(nc4ccc(Cl)cc24)CCCC3)nc1	HepG2	MTT	–	50 µM, 24 h, 10% FBS	inhibition	-3.87 ± 0.18%
COc1ccc(Nc2c3c(nc4ccccc24)CCCC3)cc1	HepG2	MTT	–	50 µM, 24 h, 10% FBS	inhibition	-31.5 ± 0.45%
